# Results pooled from the literature.
# Parts stem from different laboratories: compare values within a part only.

# Set 1 — method: RNA Bind-n-Seq; molecule type: RNA; medium: in vitro; tested at: 100 nM; reference: input RNA pool; direction: higher = stronger binding
# Target: RING finger protein unkempt homolog, zinc fingers 1-6, SBP tag (UNK, Homo sapiens, UniProt Q9C0B0, residues 30-357)
# Chain of UniProt Q9C0B0 (30-357, looked up): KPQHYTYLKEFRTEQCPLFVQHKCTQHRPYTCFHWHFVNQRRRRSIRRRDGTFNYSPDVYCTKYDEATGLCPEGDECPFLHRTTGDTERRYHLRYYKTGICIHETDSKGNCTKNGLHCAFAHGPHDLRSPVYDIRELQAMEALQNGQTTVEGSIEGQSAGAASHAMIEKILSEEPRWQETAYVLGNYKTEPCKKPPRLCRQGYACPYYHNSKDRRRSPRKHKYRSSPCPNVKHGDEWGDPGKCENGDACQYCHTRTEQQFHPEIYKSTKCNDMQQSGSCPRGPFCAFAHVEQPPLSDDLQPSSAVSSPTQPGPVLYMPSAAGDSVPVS
# Setting: RNA with constant flanks, vertebrate orthologous sites, ends assumed
Sequence,bound/input enrichment
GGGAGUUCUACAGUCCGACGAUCUCUCUGUAGGAUGAAGCUCUUACAUCAGGUGUCACGCGUUUGGAAAACAGAUGGGUUGACUAGCUGUUCUUAUAAAUUACUAUCUCUGGAGCACUACCCUUUGUAUGUCAACAUCACAGUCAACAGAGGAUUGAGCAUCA,0.411 ratio
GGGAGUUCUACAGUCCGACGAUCAUUCAAACCCGUGGUGCCCUGGCCUCAUGUUGAAGGAGUAGAAGUGGACUUAGAGUCUAUUAGAAGAAAAAACAAGGCCAAACAUGAACAAGAGCGCCAUGCUGGAGGAGAUAACCAGAACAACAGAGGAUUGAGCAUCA,0.362 ratio
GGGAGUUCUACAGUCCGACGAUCCCUCCGGCUUCACACUCUUACAUGAGUGGAUUUUUCUUUUUUUUUUUUUACAUUUUGUAUAGAAAACAAAUUCAUUUAAACAAACUUAUUAUUAUAAUUAUUUUUUACAAUAUAUAUAUACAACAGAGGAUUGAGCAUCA,2.2 ratio
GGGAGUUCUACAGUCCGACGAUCUUGUGACUGGCUCUCCAAACAGGAAUAGUAGUAAAAAGAACAAACAAAAUGAUAUUUGUGUAGAAAAAUCAGAAAUUAAAUCAUGUAAAGUAAAUGCUGGCAGUAUUCCAGGGCCUAAAGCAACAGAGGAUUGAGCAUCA,0.788 ratio
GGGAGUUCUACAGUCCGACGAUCGAACCUGUGUGCUGUGUGCGCUGUUGGCCACGUGGCGUCGUUUGAUUUGUGAUCUUGACAUAAUAGAUAGGCUUGUGGUUUUUUAAUUUAAAGAUAUUAAGACUUAAUUCACUAAAAUUUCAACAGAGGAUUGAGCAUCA,0.427 ratio
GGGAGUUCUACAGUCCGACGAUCAUUCAAACCUGUGGUACCAUGGCCUCAUGUUGAAGGAGUAGAAGUGGACUUAGAGUCUAUUAGAAGAAAAAACAAAGCCAAAAAUGAACAGGAGCGCCAUGCUGGAGGAGAUUCCCAGAGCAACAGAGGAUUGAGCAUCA,0.418 ratio
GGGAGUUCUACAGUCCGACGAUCCAACUCAAUGGUUGAGGGUUCAGAACUCAAAAAGGUUCGCUCCAACUCUAGAAUUUACCAUAGGUAUUUUUUACUGGAUGCCGACAUGCAGAGCCUGAGGUGGGAACCAUCUAAAAAGGACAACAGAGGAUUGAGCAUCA,0.187 ratio
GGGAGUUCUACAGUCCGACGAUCCGGCAGAUUCUCUCAUAGGGAGAGCUGCACACAUUGCUGUUCUUGAUUCAGAAAUAUUUUUAGAAAAAUUCUUUCUUGUUGCUGCCCUAAAAUAUUUUCAGUAGGGAAUAGCAUUCUAAGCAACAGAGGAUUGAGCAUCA,0.317 ratio
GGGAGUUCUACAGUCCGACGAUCGCAGUGAAAAUACAGCCCUUCUCCCUGCCCCCUUUUCACUAGGAGAUACAAACGUUUCCGUAGAAGAGCAAUUAAACUCAAUAAAUUUAUCUUUUCAGGAUGAUCCAGAAUCCAGUACCACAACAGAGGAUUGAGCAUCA,1.41 ratio
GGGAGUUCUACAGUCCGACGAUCCAUUAUACCCUGCUGUAUAAUAAACAAUCUUAGACAUUUAUCAACUGUUGAUACAAAUGUUAGUCCCUAACCACUUUUUAUAUAUGUUUUAAAUUUUUGAAAUUCAAGUGUACCUGCCAUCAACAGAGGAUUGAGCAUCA,0.988 ratio
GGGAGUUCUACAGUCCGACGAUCUCUAGUACUUAAGCUAGCAACAGUUCUAAAAUCAUAUUUAUUUGUCUGUAUGUUUGUACAUAGUACCAACCUCAUAUUGUUGCAGAUUUCUUUUUUCCAUGAGUUUGAGUUUGGUUUUAUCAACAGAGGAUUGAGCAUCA,0.502 ratio

# Set 2 — method: protein binding microarray; molecule type: double-stranded DNA, one strand shown; medium: in vitro; tested at: not given; reference: not given; direction: higher = stronger binding
# Target: Histone acetyltransferase KAT6A, winged helix 2, GST fusion (KAT6A, Homo sapiens, UniProt Q92794, residues 85-181)
# Setting: 8-mer, flanks averaged, mean of 2 arrays, mostly near background
# Residues (chain): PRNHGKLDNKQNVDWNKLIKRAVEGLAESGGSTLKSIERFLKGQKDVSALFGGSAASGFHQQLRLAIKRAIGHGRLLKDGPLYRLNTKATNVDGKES
Sequence,E-score
AACGCACT,0.0564
CAAACTTC,0.0456
CGCAGCTA,0.193
ACCCCGTA,-0.0917
CGTCGTGA,-0.075
AGAACCAT,0.0748
GTCTAATA,-0.187
ACGACCTG,-0.14
ATACAACA,-0.0823
CCAGTCAC,-0.0451
GAGCATGC,-0.004
AGAGGTAG,-0.00777
ATTCCTAC,-0.234
CAGCCACA,0.15
ATCCTAGG,-0.0553
CAAGGCCC,0.219
AAGACGGC,0.0115
CAAGTGTC,-0.0523
AAGTCACA,-0.0891
ATGAATCG,-0.0477
AGGGAAGG,-0.123

# Set 3 — method: RNA Bind-n-Seq; molecule type: RNA; medium: in vitro; tested at: 365 nM; reference: no-protein control; direction: higher = stronger binding
# Target: RNA binding protein fox-1 homolog 2, RRM domain, GST-SBP tag (RBFOX2, Homo sapiens, UniProt O43251-10, residues 100-194)
# Setting: natural RNA segment, single round, ends assumed
# Target sequence (chain): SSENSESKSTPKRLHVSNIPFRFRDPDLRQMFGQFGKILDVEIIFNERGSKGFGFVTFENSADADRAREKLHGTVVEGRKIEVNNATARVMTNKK
Sequence,RBNS enrichment (R)
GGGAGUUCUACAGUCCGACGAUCGCCCCUGUCUGGGCACCUCUGCCCUGCCUGUCUGCUGCCCGGAUCCUCCUCACUUAGCACCUAGGGGUGUCAGGGUCGGGAGUAGGACCUGUCCUGACCUCAGGGUUAUAUGGAAUUCUCGGGUGCCAA,0.585
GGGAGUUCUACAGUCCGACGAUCCUCCUUCCAGGAGGGGACCCUCAGCCCUGUGCCCCCCACCACUUCAGGCCACACCAGGUUCCCUCUGCAAGGGCCUCGGCUCAGUCGUGUGCACUUCCUCGGAGAGCCUUUGGAAUUCUCGGGUGCCAA,0.212
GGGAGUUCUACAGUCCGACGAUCUUUUAAAAGAAGGAAAUUAAGACAUGAUUUUUCUCUAGAUUUUCUUCACUUCAGUCUUUCUACUAACCUCGUAAAAACCAUGGCUUCCAUUUGCUUUAUUUGUGCAAAUGUGGAAUUCUCGGGUGCCAA,0.493
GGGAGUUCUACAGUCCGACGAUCUUGCCCUUUCUUCCCGAGGGCUGUGGGCCAGCGCUCCGAAGGAAGCAAUCAAGGGGAGAAAACACAGUGUAAGCCGCUGUCAAUAAAUGACACCCAGACCUUCCAGCUGCUGGAAUUCUCGGGUGCCAA,0.408
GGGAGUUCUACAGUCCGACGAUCCUUGCUUUGCAUUUGAUAGUGUCAAAUAAUUGCUUGUACCCUAGGUAAUGACCAGUGGAUUUUUGUUUGGCUUUAUUAAUCUCAUCACAGUGUAUUCUGAUGUCUUAAGUUGGAAUUCUCGGGUGCCAA,4.3
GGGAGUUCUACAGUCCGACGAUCAUGUGUUCCCACACAUCCACAUCAUGGGAAGGUUAAUGUGUGCCUCCUUGGAACUGGGUGUUGGUGUCCAUGGAACUUCCUCUCUGUAUCUCAGGUCAGUAGGCGCAGAAUGGAAUUCUCGGGUGCCAA,0.765
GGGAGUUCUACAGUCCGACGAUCUGCAACUGCUGGGCUUGCCUUCUGUUAGUGUGGUAGUACAUGACAGAGGCAUUAGACUAUUUUUUAGCUGCCCUCAUAAAUAUAUAACGAAUAGGUAAAUGCCAAUACCCUGGAAUUCUCGGGUGCCAA,0.935
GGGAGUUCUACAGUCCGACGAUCGAAAAUGCCAACUUGGUUUUUUAACUCCUCUCACCCUGUUAGCUCUGAUUAAAAACACUGCAACCCAGCUAACUUGUCCAGCAUAUGUUGAAUGGGAGCCAAAGUGUAGCUGGAAUUCUCGGGUGCCAA,1.16
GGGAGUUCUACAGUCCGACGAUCCAUCCAGAGCUCCUCUGAAGCCAGGGGGCUAACGGAUGUUGUGUGGAGUCCUGGCUGGAGGUCCUCCCCCAGUGGCCUUCCUCCCUUCCUUUCACAGCCGGUCUCUCUGCUGGAAUUCUCGGGUGCCAA,0.261

# Set 4 — method: RNA Bind-n-Seq; molecule type: RNA; medium: in vitro; tested at: 200 nM; setting: whole 134-nt RNA, ends assumed; with: 150 mM LiCl; reference: input library; direction: higher = stronger binding; each molecule: 7-deaza-guanosine replaces G
# Target: Fragile X messenger ribonucleoprotein 1, C-terminal low-complexity region (Fmr1, Mus musculus, UniProt P35922)
Sequence,log2 enrichment
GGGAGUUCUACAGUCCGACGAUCUGGCCCUGGUGGCAUGCGGGGAGGAAGAGGUGGCCUCAUGGAUCGUGGUGGUCCCGGUGGAAUGUUCAGAGGUGGCCGUGGUAGAGACAGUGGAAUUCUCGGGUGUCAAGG,-0.824
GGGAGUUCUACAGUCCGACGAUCCUCAAGUCCUGUGCUACACAUCGUAUGUACCGAAUCGGAAAGGAAAGGAAAGGAAAGUAUUAUGUUACGCCGUUCGGAUCUGCACUUCCAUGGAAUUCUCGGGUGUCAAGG,-0.301
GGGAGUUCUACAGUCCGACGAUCUAACUUUAGAGGAGGAUCUGUUGGAUAUGGCAGUGGACGUGGAUUUGGGGAUGGCUAUAAUGGGUAUGGAGGAGGACCUGGAGGUGGCAAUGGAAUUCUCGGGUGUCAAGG,0.273
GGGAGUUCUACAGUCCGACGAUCAAGUCCUGUGCUACACAUCGUAUGUACCGAAUCGGAAAAAGGUUUUUUUGGAAAGGAAAGUAUUAUGUUACGCCGUUCGGAUCUGCACUUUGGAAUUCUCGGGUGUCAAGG,-3.32
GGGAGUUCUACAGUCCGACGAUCACCAUGCAGGUGGGCAUCUUUGGGAAGUGGGGCAAGGGGGGGAUAGGGAGGGGGGUAACACUCUGGGAACAGGUGGUCCCAGGUCGUUUCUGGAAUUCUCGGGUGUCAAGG,1.34
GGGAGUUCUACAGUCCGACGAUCCAAGUCCUGUGCUACACAUCGUAUGUACCGAAUCGGUUUUGGGUUUUGGUUUUGGGAAAGUAUUAUGUUACGCCGUUCGGAUCUGCACUUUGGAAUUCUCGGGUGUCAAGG,-1.69
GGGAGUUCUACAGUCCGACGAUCCAAGUCCUGUGCUACACAUCGUAUGUACCGAAUCGGAAAGGGAAAGGGGAAAGGGGAAAGUAUUAUGUUACGCCGUUCGGAUCUGCACUUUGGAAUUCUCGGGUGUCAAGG,-0.327
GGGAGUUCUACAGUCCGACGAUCUUUAAUGUCUGCGGCACAAUGCCUGUCUGUGGGACCAUCCUGGGAAAACCUGCUUCUGGCUGUGAGGCAGAAACCCAAACUGAAGAGCUCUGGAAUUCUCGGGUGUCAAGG,0.684
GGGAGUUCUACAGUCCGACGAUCUACUAUCAAACAAUCGGAAACCACGCGUCCUACUACAAAGAUGCUCUGCGGUUUUUGGGCUGUGUUGACAUCAAGGAUCUACCAGGUAACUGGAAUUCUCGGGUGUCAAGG,-1.78
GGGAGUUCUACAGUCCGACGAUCAAGUCCUGUGCUACACAUCGUAUGUACCGAAUCGGAAAAAGGAAAAAGGGAAAAAGGAAAGUAUUAUGUUACGCCGUUCGGAUCUGCACUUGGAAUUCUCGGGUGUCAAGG,-0.729
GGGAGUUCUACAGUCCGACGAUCCCUCAAGUCCUGUGCUACACAUCGUAUGUACCGAAUCGGGGAGGGAGGAGGGAAAGUAUUAUGUUACGCCGUUCGGAUCUGCACUUCCAGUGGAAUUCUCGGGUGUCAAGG,-0.441

# Excerpt of the above (set 3):
Sequence,RBNS enrichment (R)
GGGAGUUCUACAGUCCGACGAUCGCCCCUGUCUGGGCACCUCUGCCCUGCCUGUCUGCUGCCCGGAUCCUCCUCACUUAGCACCUAGGGGUGUCAGGGUCGGGAGUAGGACCUGUCCUGACCUCAGGGUUAUAUGGAAUUCUCGGGUGCCAA,0.585
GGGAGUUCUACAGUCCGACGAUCCUCCUUCCAGGAGGGGACCCUCAGCCCUGUGCCCCCCACCACUUCAGGCCACACCAGGUUCCCUCUGCAAGGGCCUCGGCUCAGUCGUGUGCACUUCCUCGGAGAGCCUUUGGAAUUCUCGGGUGCCAA,0.212
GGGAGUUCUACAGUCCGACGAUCUUUUAAAAGAAGGAAAUUAAGACAUGAUUUUUCUCUAGAUUUUCUUCACUUCAGUCUUUCUACUAACCUCGUAAAAACCAUGGCUUCCAUUUGCUUUAUUUGUGCAAAUGUGGAAUUCUCGGGUGCCAA,0.493
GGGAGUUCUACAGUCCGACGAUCUUGCCCUUUCUUCCCGAGGGCUGUGGGCCAGCGCUCCGAAGGAAGCAAUCAAGGGGAGAAAACACAGUGUAAGCCGCUGUCAAUAAAUGACACCCAGACCUUCCAGCUGCUGGAAUUCUCGGGUGCCAA,0.408
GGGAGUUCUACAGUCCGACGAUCCUUGCUUUGCAUUUGAUAGUGUCAAAUAAUUGCUUGUACCCUAGGUAAUGACCAGUGGAUUUUUGUUUGGCUUUAUUAAUCUCAUCACAGUGUAUUCUGAUGUCUUAAGUUGGAAUUCUCGGGUGCCAA,4.3
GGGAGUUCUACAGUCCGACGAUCAUGUGUUCCCACACAUCCACAUCAUGGGAAGGUUAAUGUGUGCCUCCUUGGAACUGGGUGUUGGUGUCCAUGGAACUUCCUCUCUGUAUCUCAGGUCAGUAGGCGCAGAAUGGAAUUCUCGGGUGCCAA,0.765
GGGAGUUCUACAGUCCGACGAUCUGCAACUGCUGGGCUUGCCUUCUGUUAGUGUGGUAGUACAUGACAGAGGCAUUAGACUAUUUUUUAGCUGCCCUCAUAAAUAUAUAACGAAUAGGUAAAUGCCAAUACCCUGGAAUUCUCGGGUGCCAA,0.935
